# Measured values from different studies.
# Each numbered part is a random draw from the data of one study; scales do not carry over between parts. Changes are numbered by the printed parent chain.

# Set 1
# Target: Interferon regulatory factor 7, full length, phosphomimetic (IRF7, Homo sapiens, UniProt Q92985, residues 1-503, S101K/S471D/S472D/S475D/S476D/S477D/S483D/S484D/S487D)
# UniProt Q92985, sequence (whole entry, unmodified, looked up): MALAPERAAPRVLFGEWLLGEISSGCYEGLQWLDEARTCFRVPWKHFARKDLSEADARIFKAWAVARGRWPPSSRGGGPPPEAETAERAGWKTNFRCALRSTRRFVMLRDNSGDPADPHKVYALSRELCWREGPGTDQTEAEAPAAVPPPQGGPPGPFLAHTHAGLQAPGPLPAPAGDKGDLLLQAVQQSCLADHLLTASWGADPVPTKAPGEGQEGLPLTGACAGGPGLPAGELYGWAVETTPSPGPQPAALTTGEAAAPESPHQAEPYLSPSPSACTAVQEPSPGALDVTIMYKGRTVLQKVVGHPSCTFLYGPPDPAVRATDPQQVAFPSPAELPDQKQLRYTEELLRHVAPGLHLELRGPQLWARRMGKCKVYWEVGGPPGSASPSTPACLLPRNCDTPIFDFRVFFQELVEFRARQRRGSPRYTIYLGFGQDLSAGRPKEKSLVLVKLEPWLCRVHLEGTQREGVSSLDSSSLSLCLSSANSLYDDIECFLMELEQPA
# Technique: protein-binding microarray
# Molecule type: double-stranded DNA, one strand shown
# Matrix: in vitro
# Concentration: 250 nM
# Setting: 60-bp whole probe
# With: salmon DNA 0.4 mg/ml
# Baseline: random background probes
# Reading: higher = stronger binding
# All sequences stand within: GCCTAGCAC … GTCTTGATTCGCTTGACGCTGCTG
Strand,log fluorescence [z-score]
TTAGGCATCGGGACTGGGTTAGTGCTA,-0.458
TTAGGTTTCGGGGTTCGGTTAGTGCTA,4.44
GACGGACTGGACATTGGGGACGTGCTA,-0.561
GACGGTTTCGACGATCGGGACGTGCTA,1.58
TCATTTTTCTAACTAAAACTGTGCTAG,1.47
GACGGACTCGGTATCGGGACGTGCTAG,1.18
TACGATCTCAGTCTCGAGACGTGCTAG,0.645
TCAATTTTTAGGATGGGACTGTGCTAG,0.127
GAAGGTATCCTTCTCCTGACGTGCTAG,0.352
GAAGGACTGCTTCTCCTGACGTGCTAG,0.498
GACGGTATCCTAATGCTGACGTGCTAG,0.135
CCCAATTGTCTTTTCACTTTGTGCTAG,1.08
TTAGAATTCGGGTATCGATTAGTGCTA,0.738
TTAGATAGCAGTTTCGATTAGTGCTAG,8.07
TGTGCTTTCCTGATGGTTCTGTGCTAG,0.26
AGTATGTTCCCTATTTAAGGGTGCTAG,2.73
TTAGGTTTCGGGTATCGGTGAGTGCTA,6.79
GACGGACTGGGTATCGGCACGTGCTAG,-0.491
TACTCTTGTGACTATGGACCGTGCTAG,0.593

# Set 2
# Target: Sal-like protein 4, full length isoform B (SALL4, Homo sapiens, UniProt Q9UJQ4-2, residues 1-616)
# Technique: universal PBM
# Molecule type: double-stranded DNA, one strand shown
# Matrix: in vitro
# Concentration: not given
# Setting: 8-mer, flanks averaged, mean of replicates
# Reading: higher = stronger binding
# Target sequence (chain): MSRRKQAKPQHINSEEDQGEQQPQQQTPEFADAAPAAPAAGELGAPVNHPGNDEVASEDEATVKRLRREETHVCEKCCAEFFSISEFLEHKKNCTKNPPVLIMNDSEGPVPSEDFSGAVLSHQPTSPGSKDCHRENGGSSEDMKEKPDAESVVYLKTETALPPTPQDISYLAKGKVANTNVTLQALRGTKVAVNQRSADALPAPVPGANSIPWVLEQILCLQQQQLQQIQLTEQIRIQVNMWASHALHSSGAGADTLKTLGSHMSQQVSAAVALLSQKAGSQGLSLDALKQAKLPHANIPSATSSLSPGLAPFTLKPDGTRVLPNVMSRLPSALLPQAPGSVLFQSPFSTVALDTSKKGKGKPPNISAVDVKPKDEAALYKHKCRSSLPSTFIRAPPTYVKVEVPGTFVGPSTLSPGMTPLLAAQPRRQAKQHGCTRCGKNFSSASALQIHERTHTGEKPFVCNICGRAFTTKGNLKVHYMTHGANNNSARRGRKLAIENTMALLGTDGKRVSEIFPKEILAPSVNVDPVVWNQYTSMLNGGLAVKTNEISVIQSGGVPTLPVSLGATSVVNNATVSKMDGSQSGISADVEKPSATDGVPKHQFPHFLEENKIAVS
Strand,E-score
AAGTAGCG,-0.0681
AAAAAGCC,-0.0334
CGGGACGA,-0.243
AATATCCA,0.309
AAGGACTG,-0.195
GCCAAAGA,-0.0788
AACCCATC,-0.136
GAATCATC,0.0927
GGCCCAGA,-0.17
AGGTACAG,0.0395
GAATCAGA,-0.0108
AGCTCCCG,-0.353
AGTGTAAT,0.255
AATTTTGA,0.326
ACCCAGGT,-0.315
CGTGATAC,0.0101
ATCAGGCA,-0.0599
TATCCAGA,0.101

# Set 3
# Target: RNA binding protein fox-1 homolog 2, RRM domain, GST-SBP tag (RBFOX2, Homo sapiens, UniProt O43251-10, residues 100-194)
# Technique: RNA Bind-n-Seq
# Molecule type: RNA
# Matrix: in vitro
# Concentration: 365 nM
# Setting: natural RNA segment, single round, ends assumed
# Baseline: no-protein control
# Reading: higher = stronger binding
# Target sequence (chain): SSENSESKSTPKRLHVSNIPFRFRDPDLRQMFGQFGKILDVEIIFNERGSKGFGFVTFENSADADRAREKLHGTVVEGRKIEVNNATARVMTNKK
Strand,RBNS enrichment (R)
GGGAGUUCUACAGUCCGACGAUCACUAAUAAAGAACAUUUGGUUGGUCAGAUCCACUUUUAACCUCUGGUGCUGUACAGAAGGCAUUAAACUAAUGUAAACUACAUCCUAUGUUUGGUUCAUUUGAAAUUUUGUGGAAUUCUCGGGUGCCAA,0.385
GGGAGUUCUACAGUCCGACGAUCGGCAGCAGCUUCUUCGAGAAGGAUGGGGCUCCCUUUUGCCCCGAGUGCUACUUUGAGCGCUUCUCCCCACGAUGUGGCUUCUGUAACCAACCCAUCCGACACGAAAUGGUUGGAAUUCUCGGGUGCCAA,0.211
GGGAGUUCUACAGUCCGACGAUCCUCUGCCAUCACAGAGAAGGAGACACACUUUGAGUCCCCACCAGCCAUUUGGAUGCGGCUCCAACCUUCCUUCCCUGCGUGUAAAUGAAUCCUGAACCUCGUACUUCACCUGGAAUUCUCGGGUGCCAA,0.395
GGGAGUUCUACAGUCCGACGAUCUUCCUUGUCUUAGUAACAUUGUACAAAUAGUGGCUUAUUUUUAAGUUGUAAUGCCUCCUGAUGGAUAUAAUUUUGUGCUUGUAUUUAAGAUUAAAAGUUGAAUAAAUAACUGGAAUUCUCGGGUGCCAA,0.369
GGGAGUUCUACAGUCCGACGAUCGCCAGGUGCCUUAACUCUGGGACGUGUACAGACGUCCUCCCUCCUCUUUGGGAACUGUCCUCUUGGUGGAUCCGGGUUCCUGACCCCACCUCCCCCCAGUUGCCCCUCAGUGGAAUUCUCGGGUGCCAA,0.369
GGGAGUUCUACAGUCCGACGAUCUAUUAAUGCAAUAAAUUAACUUUGUACACAUUUUUAUAUAAAAAAACAGCAAGUGAUUUCAGAAUGUUGUAGGCCUCAUUAGAGCUUGGUCUCCAAAAAUCUGUUUGAAAUGGAAUUCUCGGGUGCCAA,0.642
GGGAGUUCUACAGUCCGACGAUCUCUCAUCCCUUUCACACUAGAUUCUCAGACAUGAAUGAAUUUGUCGUUUGGAAGGAAAGCUGGGUAACGUUUUGGGCACAGGGGAAGGAGGACUCCGGUCUUAACUCCCAUGGAAUUCUCGGGUGCCAA,0.282
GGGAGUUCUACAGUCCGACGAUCGCCAAAGACUGGUGGUGGGUCCACGGAAUCUGCCCUGUGACAUGAAAGGCUUUGAGGGGCUCUGGCUGGUGGCCAGGUUGGCUUUUUGUAUUUCUGGUUGACACACCAUGUGGAAUUCUCGGGUGCCAA,0.897
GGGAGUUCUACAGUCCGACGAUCCUUCUUCAUGAUGUUGCCCCUAAAUUUUGCACACUAUAUUCUUGUAUAUUAUUUCAAAUAAAUGGAAAAAAAAGUUGCUUAUCUCUGACGUCUACUGAUUGAUUGAUUGAUGGAAUUCUCGGGUGCCAA,0.372
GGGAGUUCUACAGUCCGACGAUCUUUGACACUGGUGGUGAGUUCUUUUGAGGCGUGAGAUUUCUAUGUGAAACUGAUAGGUCUUGAUCUGCUUUCUUAGAUCACUGAUUCAGAGCUCAAAGCCCAGGUUCAGGUGGAAUUCUCGGGUGCCAA,0.487
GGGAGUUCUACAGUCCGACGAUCAAACAUCUGAAGUAUGGGACGCCCUGGCCGUUCCAUCCAGUACUAAAUGCUUACCGUGUGACCCUUGGGCUUUCAGCGUGCACUCAGUUCCGUAGGAUUCCAAAGCAGACUGGAAUUCUCGGGUGCCAA,0.45
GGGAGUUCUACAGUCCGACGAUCUCUUAGUCAGUUUUUAGGGGACCUCGGGGGUGGGGUAUAUAGGUAAUAUACAGAGCAUUUUGACUUCUAAAUAGUUAGAUCCAGAGAUGAAGUGCACUGUUCUCUCUUCAUGGAAUUCUCGGGUGCCAA,0.784

# Set 4
# Target: ABI1, truncated, D143A, DHFR fusion (Arabidopsis thaliana)
# Technique: DHFR PCA, deep sequencing
# Matrix: yeast
# Setting: methotrexate growth selection, single substitutions
# With: (+)-ABA 1.4 µM
# Baseline: wild-type fitted maximum
# Reading: higher = stronger binding
# Starting sequence: PYL1, truncated, DHFR fusion (Arabidopsis thaliana); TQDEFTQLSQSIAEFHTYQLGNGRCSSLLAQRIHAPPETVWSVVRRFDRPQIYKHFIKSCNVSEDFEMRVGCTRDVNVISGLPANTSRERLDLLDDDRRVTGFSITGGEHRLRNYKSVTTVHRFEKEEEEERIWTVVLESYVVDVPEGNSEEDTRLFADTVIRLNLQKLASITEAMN
Change,relative binding score [%]
A30G,34.9
L29D,4.81
R155M,31.1
H34Q,41.4
T135K,-5.84
K116W,-3.9
S11V,74
L169G,1.11
N77I,61.8
I133H,63
H110G,15.1
Q19A,58.6
E125T,59.8
F5Y,31.1

# For quick reference, copied from above (set 3):
Strand,RBNS enrichment (R)
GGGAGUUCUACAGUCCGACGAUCUUUGACACUGGUGGUGAGUUCUUUUGAGGCGUGAGAUUUCUAUGUGAAACUGAUAGGUCUUGAUCUGCUUUCUUAGAUCACUGAUUCAGAGCUCAAAGCCCAGGUUCAGGUGGAAUUCUCGGGUGCCAA,0.487
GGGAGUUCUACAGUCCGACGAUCCUUCUUCAUGAUGUUGCCCCUAAAUUUUGCACACUAUAUUCUUGUAUAUUAUUUCAAAUAAAUGGAAAAAAAAGUUGCUUAUCUCUGACGUCUACUGAUUGAUUGAUUGAUGGAAUUCUCGGGUGCCAA,0.372
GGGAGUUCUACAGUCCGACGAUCGGCAGCAGCUUCUUCGAGAAGGAUGGGGCUCCCUUUUGCCCCGAGUGCUACUUUGAGCGCUUCUCCCCACGAUGUGGCUUCUGUAACCAACCCAUCCGACACGAAAUGGUUGGAAUUCUCGGGUGCCAA,0.211
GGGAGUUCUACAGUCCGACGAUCGCCAGGUGCCUUAACUCUGGGACGUGUACAGACGUCCUCCCUCCUCUUUGGGAACUGUCCUCUUGGUGGAUCCGGGUUCCUGACCCCACCUCCCCCCAGUUGCCCCUCAGUGGAAUUCUCGGGUGCCAA,0.369
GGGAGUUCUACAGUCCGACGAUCUCUCAUCCCUUUCACACUAGAUUCUCAGACAUGAAUGAAUUUGUCGUUUGGAAGGAAAGCUGGGUAACGUUUUGGGCACAGGGGAAGGAGGACUCCGGUCUUAACUCCCAUGGAAUUCUCGGGUGCCAA,0.282
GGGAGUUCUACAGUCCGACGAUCACUAAUAAAGAACAUUUGGUUGGUCAGAUCCACUUUUAACCUCUGGUGCUGUACAGAAGGCAUUAAACUAAUGUAAACUACAUCCUAUGUUUGGUUCAUUUGAAAUUUUGUGGAAUUCUCGGGUGCCAA,0.385
